Measured values gathered from unrelated publications.
Each line is one published result; not all experiments were run side by side. Values joined by “and” are separate records of one study, mostly repeats; a detail may differ. ± marks the error that the study gave.
RIPK2: Receptor-interacting serine/threonine-protein kinase 2 (RIPK2, Homo sapiens, UniProt O43353)
Chain of UniProt O43353 (whole entry, looked up): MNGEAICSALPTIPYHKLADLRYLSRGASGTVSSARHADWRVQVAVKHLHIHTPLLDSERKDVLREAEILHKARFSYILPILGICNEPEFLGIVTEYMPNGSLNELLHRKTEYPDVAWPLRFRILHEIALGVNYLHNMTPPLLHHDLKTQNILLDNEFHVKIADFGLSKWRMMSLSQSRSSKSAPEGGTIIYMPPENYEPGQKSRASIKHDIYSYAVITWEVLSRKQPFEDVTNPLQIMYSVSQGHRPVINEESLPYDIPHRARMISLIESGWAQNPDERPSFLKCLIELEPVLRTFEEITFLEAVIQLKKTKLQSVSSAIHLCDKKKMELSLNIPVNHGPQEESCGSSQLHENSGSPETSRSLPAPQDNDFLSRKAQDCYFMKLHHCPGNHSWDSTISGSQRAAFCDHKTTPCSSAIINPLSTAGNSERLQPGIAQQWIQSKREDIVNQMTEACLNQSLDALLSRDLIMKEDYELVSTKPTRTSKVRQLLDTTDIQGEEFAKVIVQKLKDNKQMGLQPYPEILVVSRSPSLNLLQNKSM
ABCG2: Broad substrate specificity ATP-binding cassette transporter ABCG2 (ABCG2, Homo sapiens, UniProt Q9UNQ0)
Chain of UniProt P00748 (whole entry, looked up): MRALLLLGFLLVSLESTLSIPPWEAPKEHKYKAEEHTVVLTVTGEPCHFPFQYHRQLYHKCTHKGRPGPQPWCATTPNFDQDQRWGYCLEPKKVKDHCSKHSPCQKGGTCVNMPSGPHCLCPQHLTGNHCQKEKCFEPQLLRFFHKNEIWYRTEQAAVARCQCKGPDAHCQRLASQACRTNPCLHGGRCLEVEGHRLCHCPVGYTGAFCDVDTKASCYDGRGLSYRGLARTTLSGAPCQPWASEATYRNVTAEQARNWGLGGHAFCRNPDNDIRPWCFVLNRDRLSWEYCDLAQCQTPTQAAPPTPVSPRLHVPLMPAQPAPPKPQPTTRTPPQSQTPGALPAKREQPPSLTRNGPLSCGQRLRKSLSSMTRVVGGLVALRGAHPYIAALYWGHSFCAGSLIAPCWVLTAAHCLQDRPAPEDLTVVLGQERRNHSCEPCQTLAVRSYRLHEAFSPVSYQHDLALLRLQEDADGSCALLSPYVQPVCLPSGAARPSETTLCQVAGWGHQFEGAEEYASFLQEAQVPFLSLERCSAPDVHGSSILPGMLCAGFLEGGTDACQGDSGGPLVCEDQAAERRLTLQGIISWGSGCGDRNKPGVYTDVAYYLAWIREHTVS
Chain of UniProt Q9UNQ0 (whole entry, looked up): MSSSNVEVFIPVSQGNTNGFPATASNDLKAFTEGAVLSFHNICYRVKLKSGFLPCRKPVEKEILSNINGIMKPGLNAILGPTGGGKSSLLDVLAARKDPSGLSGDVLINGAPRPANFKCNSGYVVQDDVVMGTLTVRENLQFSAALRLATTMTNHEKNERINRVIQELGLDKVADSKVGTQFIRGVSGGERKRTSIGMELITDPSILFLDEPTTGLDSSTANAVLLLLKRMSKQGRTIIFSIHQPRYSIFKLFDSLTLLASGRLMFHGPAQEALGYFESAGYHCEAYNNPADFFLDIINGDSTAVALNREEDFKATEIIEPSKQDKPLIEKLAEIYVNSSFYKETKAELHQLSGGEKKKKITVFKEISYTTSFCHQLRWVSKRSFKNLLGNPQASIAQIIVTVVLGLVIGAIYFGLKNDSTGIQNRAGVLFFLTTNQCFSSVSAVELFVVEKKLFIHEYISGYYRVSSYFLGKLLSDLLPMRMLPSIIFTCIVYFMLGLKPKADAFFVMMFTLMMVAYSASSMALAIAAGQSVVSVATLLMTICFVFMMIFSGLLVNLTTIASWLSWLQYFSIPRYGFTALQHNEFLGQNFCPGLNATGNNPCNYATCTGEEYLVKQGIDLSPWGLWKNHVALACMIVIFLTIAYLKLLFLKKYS
Chain of UniProt P53779 (whole entry, looked up): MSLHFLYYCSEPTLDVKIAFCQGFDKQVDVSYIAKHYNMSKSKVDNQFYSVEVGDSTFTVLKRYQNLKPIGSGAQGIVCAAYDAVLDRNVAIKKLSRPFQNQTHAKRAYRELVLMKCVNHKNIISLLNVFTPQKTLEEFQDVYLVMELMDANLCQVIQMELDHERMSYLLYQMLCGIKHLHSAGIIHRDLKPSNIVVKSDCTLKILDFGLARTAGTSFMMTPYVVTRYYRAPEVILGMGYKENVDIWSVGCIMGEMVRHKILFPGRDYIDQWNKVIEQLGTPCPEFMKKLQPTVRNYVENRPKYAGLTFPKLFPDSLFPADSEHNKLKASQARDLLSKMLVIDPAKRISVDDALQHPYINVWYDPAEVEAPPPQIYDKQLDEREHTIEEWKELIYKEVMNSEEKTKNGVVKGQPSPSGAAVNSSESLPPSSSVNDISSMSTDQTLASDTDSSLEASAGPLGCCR
Chain of UniProt Q15391 (whole entry, looked up): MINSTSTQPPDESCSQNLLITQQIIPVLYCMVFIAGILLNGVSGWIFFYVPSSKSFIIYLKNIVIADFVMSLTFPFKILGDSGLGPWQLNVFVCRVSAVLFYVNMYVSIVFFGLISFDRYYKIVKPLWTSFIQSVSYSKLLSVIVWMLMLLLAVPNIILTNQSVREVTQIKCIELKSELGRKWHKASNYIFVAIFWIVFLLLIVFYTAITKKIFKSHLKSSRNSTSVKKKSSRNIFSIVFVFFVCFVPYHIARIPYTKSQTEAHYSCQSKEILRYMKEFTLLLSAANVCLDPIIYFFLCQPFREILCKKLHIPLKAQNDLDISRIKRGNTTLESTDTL
Chain of UniProt Q8R2Y0 (whole entry, looked up): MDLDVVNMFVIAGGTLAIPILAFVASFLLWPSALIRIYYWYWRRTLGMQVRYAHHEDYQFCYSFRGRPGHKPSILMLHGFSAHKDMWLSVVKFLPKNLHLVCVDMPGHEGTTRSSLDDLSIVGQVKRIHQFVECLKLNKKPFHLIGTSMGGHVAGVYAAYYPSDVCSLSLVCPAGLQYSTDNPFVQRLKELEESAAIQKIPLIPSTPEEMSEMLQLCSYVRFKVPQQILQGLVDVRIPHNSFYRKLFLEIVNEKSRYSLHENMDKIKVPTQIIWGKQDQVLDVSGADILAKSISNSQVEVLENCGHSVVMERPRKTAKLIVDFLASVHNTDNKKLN
Chain of UniProt P24666 (whole entry, looked up): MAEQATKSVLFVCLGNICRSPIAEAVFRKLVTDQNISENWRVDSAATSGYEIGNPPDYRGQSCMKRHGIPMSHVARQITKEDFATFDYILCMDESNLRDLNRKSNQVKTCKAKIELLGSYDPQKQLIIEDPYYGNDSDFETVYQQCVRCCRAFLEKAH
Chain of UniProt P30542 (whole entry, looked up): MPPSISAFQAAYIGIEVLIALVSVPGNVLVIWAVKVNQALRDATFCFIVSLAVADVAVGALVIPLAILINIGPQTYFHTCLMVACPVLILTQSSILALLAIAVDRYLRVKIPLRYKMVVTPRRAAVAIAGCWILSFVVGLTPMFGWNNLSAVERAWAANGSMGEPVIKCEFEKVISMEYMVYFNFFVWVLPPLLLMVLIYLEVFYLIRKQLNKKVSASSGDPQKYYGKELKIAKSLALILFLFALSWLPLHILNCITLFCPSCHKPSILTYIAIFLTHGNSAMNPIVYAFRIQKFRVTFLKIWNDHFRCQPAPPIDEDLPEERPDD
Chain of UniProt P21964 (whole entry, looked up): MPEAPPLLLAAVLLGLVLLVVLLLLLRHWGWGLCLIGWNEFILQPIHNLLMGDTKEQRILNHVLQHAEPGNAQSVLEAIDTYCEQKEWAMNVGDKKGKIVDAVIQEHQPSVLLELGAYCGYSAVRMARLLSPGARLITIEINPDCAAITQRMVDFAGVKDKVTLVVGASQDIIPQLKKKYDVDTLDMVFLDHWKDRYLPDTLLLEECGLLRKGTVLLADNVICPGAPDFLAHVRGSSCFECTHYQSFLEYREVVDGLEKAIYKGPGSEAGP
Chain of UniProt P00690 (whole entry, looked up): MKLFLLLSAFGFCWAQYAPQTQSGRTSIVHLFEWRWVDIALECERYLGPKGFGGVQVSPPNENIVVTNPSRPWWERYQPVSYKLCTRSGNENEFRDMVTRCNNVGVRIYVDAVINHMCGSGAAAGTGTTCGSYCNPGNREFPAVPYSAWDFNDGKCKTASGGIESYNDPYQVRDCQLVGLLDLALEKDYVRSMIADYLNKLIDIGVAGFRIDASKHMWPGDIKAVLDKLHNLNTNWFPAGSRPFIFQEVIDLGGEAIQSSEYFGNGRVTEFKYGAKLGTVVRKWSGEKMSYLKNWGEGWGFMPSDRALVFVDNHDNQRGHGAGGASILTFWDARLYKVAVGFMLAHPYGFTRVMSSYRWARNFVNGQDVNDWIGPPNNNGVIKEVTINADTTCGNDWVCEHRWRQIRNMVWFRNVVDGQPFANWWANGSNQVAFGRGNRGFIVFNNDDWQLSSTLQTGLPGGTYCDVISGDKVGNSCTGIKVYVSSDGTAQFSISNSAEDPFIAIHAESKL
Chain of UniProt O15527 (whole entry, looked up): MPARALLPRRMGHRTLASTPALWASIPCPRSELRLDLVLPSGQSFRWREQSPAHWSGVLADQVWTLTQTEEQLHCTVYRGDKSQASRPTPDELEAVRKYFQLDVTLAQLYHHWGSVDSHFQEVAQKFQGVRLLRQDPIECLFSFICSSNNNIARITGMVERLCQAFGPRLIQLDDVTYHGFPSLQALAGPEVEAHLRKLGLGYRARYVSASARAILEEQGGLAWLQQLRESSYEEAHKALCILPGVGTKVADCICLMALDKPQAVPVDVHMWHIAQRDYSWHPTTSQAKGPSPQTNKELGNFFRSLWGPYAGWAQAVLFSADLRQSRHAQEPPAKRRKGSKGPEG
Chain of UniProt P11802 (whole entry, looked up): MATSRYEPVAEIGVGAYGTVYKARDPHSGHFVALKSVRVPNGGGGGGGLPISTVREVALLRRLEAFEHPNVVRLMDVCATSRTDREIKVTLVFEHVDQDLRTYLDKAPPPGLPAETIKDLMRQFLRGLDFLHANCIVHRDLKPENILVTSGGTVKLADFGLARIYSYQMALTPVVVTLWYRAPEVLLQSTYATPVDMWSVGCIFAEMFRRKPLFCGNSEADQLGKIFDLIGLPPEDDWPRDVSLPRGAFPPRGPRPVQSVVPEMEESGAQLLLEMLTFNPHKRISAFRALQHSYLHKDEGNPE

| Structure (SMILES) | target | test | system | setting | IC50 |
| --- | --- | --- | --- | --- | --- |
| CC(C)C[C@H](NC(=O)[C@H](CC(N)=O)NC(=O)[C@H](CC(C)C)NC(=O)[C@@H](NC(=O)[C@@H](NC(=O)[C@@H]1CCCN1C(=O)[C@H](CCCNC(=N)N)NC(=O)[C@H](CCCCN)NC(=O)[C@@H]1CCCN1C(=O)[C@H](CCCNC(=N)N)NC(=O)[C@H](CCCNC(=N)N)NC(=O)[C@H](CCCNC(=N)N)NC(=O)[C@H](CCCNC(=N)N)NC(=O)[C@H](CCC(N)=O)NC(=O)[C@H](CCCNC(=N)N)NC(=O)[C@H](CCCNC(=N)N)NC(=O)[C@H](CCCCN)NC(=O)[C@H](CCCCN)NC(=O)[C@H](CCCNC(=N)N)NC(=O)CNC(=O)[C@@H](N)Cc1ccc(O)cc1)[C@@H](C)O)[C@@H](C)O)C(=O)N[C@@H](Cc1ccccc1)C(N)=O | Mitogen-activated protein kinase 10, isoform alpha-2 (MAPK10, Homo sapiens, UniProt P53779) | enzyme activity, inhibitor |  |  | 1900 ± 180 nM |
| C=CCNC(=O)NC1CC=C(c2cc3c(Nc4cc5ncsc5cc4F)ncnc3s2)CC1 (racemic) | RIPK2 | enzyme activity, inhibitor |  |  | 7 nM |
| C=CC(=O)Nc1cccc(Cn2ncc3cnc(Nc4cnn(CCOC)c4)nc32)c1 | TXK (Homo sapiens, UniProt P42681) | enzyme activity, inhibitor, FRET |  |  | 2.91 nM |
| O=C(NC1CC1)N1CCC=C(c2cc3c(Nc4cc5ncsc5cc4F)ncnc3s2)C1 | RIPK2 | enzyme activity, inhibitor |  |  | 11 nM |
| Cc1ccc2oc(-c3c4c(N)n[nH]c(=O)c4nn3-c3ccc(NC(=O)/C=C/CN(C)C)cc3)c(C)c2c1 | CDK4 (Homo sapiens, UniProt P11802) | enzyme activity, inhibitor |  |  | > 1000 nM |
| O=c1cc(-c2ccccc2)oc2cc(O[C@@H]3O[C@H](CO)[C@@H](O)[C@H](O)[C@H]3O)c(O)c(O)c12 | COMT (Homo sapiens, UniProt P21964) | enzyme activity, inhibitor, fluorescence |  |  | 38100 nM |
| COc1ccccc1-c1ccc(-c2cn(C(=O)N3CCCCC3Cc3ccccc3)nn2)cc1 (stereo not drawn) | Abhd6 (Mus musculus, UniProt Q8R2Y0) | enzyme activity, inhibitor |  |  | 5 nM |
| O=c1cc(-c2ccc(O)c(O)c2)oc2cc(O[C@@H]3O[C@H](CO)[C@@H](O)[C@H](O)[C@H]3O)cc(O)c12 | AMY2 (Sus scrofa, UniProt P00690) | enzyme activity, inhibitor |  |  | 405000 nM |
| C[C@@H](O)[C@H](NS(=O)(=O)NS(=O)(=O)OC[C@H]1O[C@@H](n2cnc3c(N)ncnc32)[C@H](O)[C@@H]1O)C(=O)O | Threonylcarbamoyl-AMP synthase (tsaC, Escherichia coli, UniProt P45748) | TC-AMP formation, inhibitor |  | together with: ATP 1.2 mM, L-threonine 1.8 mM | 97000 ± 1400 nM |
| CSc1ccc2c(c1)C(N1CCN(C)CC1)Cc1ccccc1S2 (stereo not drawn) | 5-hydroxytryptamine receptor 2A (Drosophila melanogaster, UniProt Q9VN38) | calcium response, antagonist, calcium imaging | HEK293T | together with: 5-HT near EC50 | 44000 nM |
| O=C1O[C@H](c2ccc(O)cc2)Cc2cc(O)cc(O)c21 | PTPN1 (Homo sapiens, UniProt P18031) | enzyme activity, inhibitor, absorbance |  |  | > 100000 nM |
| COC(=O)C1C(C=NNCC(F)(F)F)=Cc2cc3c(cc2C1c1cc(OC)c(OC)c(OC)c1)OCO3 (stereo not drawn) | tubulin alpha/beta (Leishmania infantum, UniProt A0A381MCS3+A4HTR0) | tubulin polymerization, inhibitor |  | 37 °C | 2900 ± 300 nM |
| COc1ccc(-n2c(-c3ccccc3)cs/c2=N/N=C/c2ccc(N3CCOCC3)cc2)cc1 | CA2 (Bos taurus, UniProt P00921) | enzyme activity, inhibitor, absorbance |  |  | 33700 nM |
| O=S(=O)(Oc1ccccc1F)C1CC2OC1C(c1ccc(O)cc1)=C2c1ccc(O)cc1 (racemic) | ESR2 (Homo sapiens, UniProt Q92731) | reporter gene, antagonist, ERE luciferase reporter | HepG2 transfected with ERβ | together with: estradiol 1 µM | > 10000 nM |
| Nc1cccc2c1[nH]c(=O)n2C1CCN(C(=O)Nc2ccc(I)cc2)CC1 | OGG1 (Homo sapiens, UniProt O15527) | enzyme activity, inhibitor |  |  | 750 nM |
| CNC(=O)c1cc(C)ccc1NC(=O)c1ccc(-c2cc(O)ccc2C)c(C)c1 | FGR (Homo sapiens, UniProt P09769) | target engagement in cells, BRET |  |  | 45600 nM |
| CCNC(=O)[C@H]1O[C@@H](n2cnc3c(NCCCCNC(=O)CCCCCN4/C(=C/C=C/C=C/C5=[N+](CC)c6ccc(S(=O)(=O)O)cc6C5(C)C)C(C)(C)c5cc(S(=O)(=O)[O-])ccc54)ncnc32)[C@H](O)[C@@H]1O | ADORA1 (Homo sapiens, UniProt P30542) | CRE reporter gene, agonist | CHO-A1 | Gi-mediated inhibition, together with: forskolin | 5370 nM |
| O=C(O)CCSc1cc(-c2ccccc2)nc(SCCC(=O)O)n1 | P2Y purinoceptor 14 (P2RY14, Homo sapiens, UniProt Q15391) | antagonist |  |  | < 10 nM and 5.35 nM |

| Structure (SMILES) | target | test | system | setting | IC50 |
| --- | --- | --- | --- | --- | --- |
| Oc1cc(O)c2c(c1)O[C@H](c1ccc(O)c(O)c1)[C@H](O)[C@H]2c1c(O)cc(O)c2c1O[C@H](c1ccc(O)c(O)c1)[C@@H](O)[C@@H]2c1c(O)cc(O)c2c1O[C@H](c1ccc(O)c(O)c1)[C@H](O)C2 | alpha-glucosidase (Bacillus stearothermophilus) | inhibitor |  | 20 min, pH 6.8, 60 °C, together with: pNPG substrate | 5300 ± 500 nM |
| N[C@@H](CCC(=O)N[C@@H](CS[Se]Cc1ccc(-c2cccc(C(O)c3ccc(Cl)c(Cl)c3)c2)cc1)C(=O)NCC(=O)O)C(=O)O (stereo partly drawn) | ACP1 (Homo sapiens, UniProt P24666) | enzyme activity, inhibitor |  | together with: pNPP, GSH 1 mM | 12000 ± 3000 nM |
| Cc1cccc(CN2CCC(C(=O)Nc3ccc(-c4nc(-c5ccccc5)cs4)cc3)CC2)c1 | Ephx2 (Mus musculus, UniProt P34914) | enzyme activity, inhibitor, fluorescence |  | pH 7.4, with preincubation | > 10000 nM |
| COC(=O)[C@@]1(C(C)C)C=C(C(=O)Nc2cccc(C(=O)Nc3ccc(Nc4nccc(-c5cccnc5)n4)c(C)c3)c2)C(=O)CC1 | MAPK8 (Homo sapiens, UniProt P45983) | kinase activity, inhibitor |  | together with: GSH 10 mM | 641 ± 126 nM |
| Nc1ccc(Oc2c(F)c(F)c(Oc3ccc(N)cc3)c(F)c2F)cc1 | Estrogen receptor (ESR1, Homo sapiens, UniProt P03372) | coactivator recruitment, antagonist |  |  | 810 nM |
| COc1cc2c(NC3CCN(C(C)C)CC3)cc(N3CCOCC3)nc2cc1OCCCN1CCCC1 | EHMT1 (Homo sapiens, UniProt Q9H9B1) | enzyme activity, inhibitor |  |  | 6 nM |
| Cc1ccc(NC(=O)Nc2cnn(-c3cccc(C(=O)Nc4ccnc(C)c4)c3)c2)cc1 | MAPK10 (Homo sapiens, UniProt P53779) | enzyme activity, inhibitor, TR-FRET |  |  | 345 nM |
| COc1ncnc(C2CC2)c1-c1ncc2c(n1)n(Cc1ccc(-c3nc(C(F)(F)F)cn3C)cc1)c(=N)n2CC(F)(F)F | USP1 (Homo sapiens, UniProt O94782, G670A/G671A) | enzyme activity, inhibitor |  |  | 98.5 nM |
| CN(C(=O)c1ccn2ncc(-c3ccc(C(N)=O)cc3)c2c1)c1ccc(C#N)cn1 | Cathepsin D (CTSD, Homo sapiens, UniProt P07339) | enzyme activity, inhibitor |  |  | > 30000 nM |
| C=CS(=O)(=O)Nc1ccc2nc(NCCCCCN(C)C)nc(NCCCCCCN(C)C)c2c1 | Histone-lysine N-methyltransferase SETDB1, triple tudor domain (SETDB1, Homo sapiens, UniProt Q15047, C385A) | binding, TR-FRET displacement |  | 1 h, room temperature | 2500 ± 500 nM |
| N=C(NCCCCC(N)C(N)=O)NCCCSCC1OC(n2cnc3c(N)ncnc32)C(O)C1O (stereo not drawn) | EHMT2 (Homo sapiens, UniProt Q96KQ7) | enzyme activity, inhibitor, fluorescence |  |  | > 100000 nM |
| COc1ccc(C(=O)/C=C/c2ccc3c(c2)OCO3)c(OC)c1 | ABCG2 | transporter efflux, inhibitor, flow cytometry | HEK293 | 30 min | 640 nM |
| CN(C)c1ccc(/C=C/c2cc[n+](Cc3ccc(F)cc3)cc2)cc1 | KDM4A (Homo sapiens, UniProt O75164) | ligand displacement, FP |  |  | 2580 nM |
| CC(C)CCC[C@@H](C)[C@H]1CC[C@H]2[C@@H]3CC=C4C[C@@H](OS(=O)(=O)O)CC[C@]4(C)[C@H]3CC[C@]12C | F12 (Homo sapiens, UniProt P00748) | enzyme activity, inhibitor, absorbance |  | pH 7.4 | ~17000 nM and 17000 nM and 16500 nM |
| O=C1NCc2c1c1c3cc(Cl)ccc3[nH]c1c1[nH]c3ccc(Cl)cc3c21 | ABCG2 | Hoechst accumulation, inhibitor | MDCK II transfected with ABCG2 |  | 75000 nM |
| N=C(N)NCCC[C@H](NC(=O)[C@H](CC(=O)O)NC(=O)[C@@H]1CSCC(=O)NCC(=O)N[C@@H](Cc2c[nH]cn2)C(=O)N[C@H](Cc2ccccc2)C(=O)N[C@@H](CCCNC(=N)N)C(=O)N[C@@H](Cc2c[nH]c3ccccc23)C(=O)N1)C(=O)N[C@@H](Cc1ccccc1)C(=O)NCC(N)=O | MC3R (Homo sapiens, UniProt P41968) | ligand displacement, radioligand |  |  | 1630 nM |
| O=C(O)c1cccc(S(=O)(=O)NC2CC2)c1 | Ectonucleoside triphosphate diphosphohydrolase 3 (Homo sapiens, UniProt O75355) | enzyme activity, inhibitor, absorbance |  |  | 1320 nM |
| COc1cc(O)ccc1CC[C@H](c1ccc(O)cc1)c1cc2c(c(C)c1O)O[C@@H](c1ccc(O)cc1)CC2 | ALOX5 (Homo sapiens, UniProt P09917) | enzyme activity, inhibitor |  |  | 1500 nM |

Excerpt of the above:
| Structure (SMILES) | target | test | system | setting | IC50 |
| --- | --- | --- | --- | --- | --- |
| O=c1cc(-c2ccccc2)oc2cc(O[C@@H]3O[C@H](CO)[C@@H](O)[C@H](O)[C@H]3O)c(O)c(O)c12 | COMT (Homo sapiens, UniProt P21964) | enzyme activity, inhibitor, fluorescence |  |  | 38100 nM |
| COc1ccccc1-c1ccc(-c2cn(C(=O)N3CCCCC3Cc3ccccc3)nn2)cc1 (stereo not drawn) | Abhd6 (Mus musculus, UniProt Q8R2Y0) | enzyme activity, inhibitor |  |  | 5 nM |
| O=c1cc(-c2ccc(O)c(O)c2)oc2cc(O[C@@H]3O[C@H](CO)[C@@H](O)[C@H](O)[C@H]3O)cc(O)c12 | AMY2 (Sus scrofa, UniProt P00690) | enzyme activity, inhibitor |  |  | 405000 nM |
| C[C@@H](O)[C@H](NS(=O)(=O)NS(=O)(=O)OC[C@H]1O[C@@H](n2cnc3c(N)ncnc32)[C@H](O)[C@@H]1O)C(=O)O | Threonylcarbamoyl-AMP synthase (tsaC, Escherichia coli, UniProt P45748) | TC-AMP formation, inhibitor |  | together with: ATP 1.2 mM, L-threonine 1.8 mM | 97000 ± 1400 nM |
